Results gathered from unrelated publications.
Each line is one published result; not all experiments were run side by side. Several values in a cell are separate wells, animals, samples, runs or records. ± gives the spread as reported.

COc1ccc2[nH]c([S+]([O-])Cc3ncc(C)c(OC)c3C)nc2c1 (stereo not drawn) — AUC(0-inf) (healthy Chinese volunteers, plasma; oral, 20 mg, fasted, CYP2C19 intermediate metabolizers): 0.954 ± 0.547 µg·h/mL
CC(=O)O[C@H]1C(=O)[C@@]2(C)[C@H]([C@H](OC(=O)c3ccccc3)[C@]3(O)C[C@H](OC(=O)[C@H](O)[C@@H](NC(=O)c4ccccc4)c4ccccc4)C(C)=C1C3(C)C)[C@]1(OC(C)=O)CO[C@@H]1C[C@@H]2O — adverse event incidence (refers to: Fatigue; patients with advanced solid tumours; intravenous, dose not given, grade 3 and 4, possibly related to drug): 13%
CCCCOc1ccc([C@H]2CC[C@H](CCC)CC2)c(F)c1F — fetal accumulation (rat, fetus; 1000 ng/mL in perfusate, middle dose, mixture of 21 LCMs): 0.427 ± 0.353 ng/g
O=C(O)CCC(=O)O.[2H]C([2H])([2H])Oc1cc(C)c2[nH]ccc2c1CN1CC[C@@H](C2CC2)C[C@H]1c1ccc(C(=O)O)cc1 — subjects with elevated triglycerides TEAE (multiple ascending dose; healthy Chinese subjects; 50 mg twice daily): 12.5%
C=CC(=O)Nc1cc(Nc2nccc(-c3cn(C)c4ccccc34)n2)c(OC)cc1N(C)CCN(C)C — recovery (storage stability; human plasma; 2 h, on ice, MQC level): 101%
C[C@@H](Nc1cc(F)cc(F)c1)c1cc(C(=O)N(C)C)cc2c(=O)cc(N3CCOCC3)oc12 — related serious adverse events (refers to: Hypokalemia; advanced solid tumour patients; oral, dose not given, dose expansion): 0%
C[C@H]1CN(C(=O)CC#N)[C@]12CCN(c1ncnc3[nH]ccc13)C2 — participants with TEAEs (healthy adult humans; oral, 12 mg single dose): 0%
C[C@H]1O[C@@H](O[C@H]2CC[C@@]3(C)[C@@H](CC[C@]4(C)[C@@H]3C=C[C@]35OC[C@@]6(CCC(C)(C)C[C@H]63)[C@@H](O)C[C@]54C)[C@]2(C)CO)[C@H](O)[C@@H](O[C@@H]2O[C@H](CO)[C@@H](O)[C@H](O)[C@H]2O)[C@H]1O — plasma concentration (UHPLC-MS/MS; mouse, plasma; oral, 50 mg/kg, 2 h, pooled samples): 3.53 ng/mL and 3.36 ng/mL
CN(CCCNC(=O)c1cc(NC(=O)c2cc(NC(=O)c3cc(NC(=O)c4nc(NC(=O)C[C@H](CNC(=O)c5cc(NC(=O)c6cc(NC(=O)c7cc(NC(=O)c8nccn8C)cn7C)cn6C)cn5C)NC(=O)c5ccccc5)cn4C)cn3C)cn2C)cn1C)CCCNC(=S)Nc1ccc(-c2c3ccc(=O)cc-3oc3cc(O)ccc23)c(C(=O)O)c1 — critical aggregation concentration (dynamic light scattering; 0.1% DMSO in PBS; 25 °C): 1 µM
Nc1ncn([C@H]2C[C@H](O)[C@@H](CO)O2)c(=O)n1 — mean deviation from nominal (mouse plasma; 80 ng/mL, -80 °C, three freeze-thaw cycles, with THU): 12.4%
COc1cc(N2CCC3(CCN(C)CC3)CC2)ccc1Nc1ncc(Cl)c(Nc2ccccc2P(C)(C)=O)n1 — food effect on Ka (population PK model; human; oral, final model, unit not given; baseline: fasting): 0.588
CC(C)(C(=O)N1CCOc2c(C#N)cncc2C1)C(F)F — subjects with adverse event (refers to: abdominal pain; human; oral, 15 mg twice daily, 14 days, multiple ascending dose): 0%
O=C(OC(C(F)(F)F)C(F)(F)F)N1CCN(Cc2cccc(Oc3ccccc3)c2)CC1 — k2 (PET blocking study; rhesus monkey, brain Pons; 0.3 mg/kg, compound pretreatment, with: [18F]T-401 tracer): 1.61 min⁻¹
COc1ccc(NC(=O)c2cnc(N3CCN(c4ccccn4)CC3)nc2N)cc1 — parent fraction (male rhesus monkey, venous plasma; intravenous, 105 MBq, 17 min): 24%
COc1cc2c3c(n(CCCN4CCOCC4)c(=O)c2cc1OC)-c1cc2c(cc1C3=O)OCO2 — Vz (beagle dog, male, plasma; intravenous infusion, 50 mg/m^2, 1 h infusion, vehicle 1): 348 ± 105 L/m²
Cc1ccc([C@@H]2O[C@H](CO)[C@@H](O)[C@H](O)[C@H]2O)cc1Cc1ccc(-c2ccc(F)cc2)s1 — urinary phosphate excretion change (refers to: inorganic phosphorus; Japanese type 2 diabetes patients; 400 mg, day 15, 24 h urine collection; baseline: baseline): 47.3 mg
CC(C)NCCCC[C@@H]1NC(=O)[C@H](Cc2ccc(O)cc2)NC(=O)[C@H](Cc2ccccc2)NC(=O)CC[C@H](C(=O)N[C@@H](CCCCNC(C)C)C(=O)N[C@@H](CCCCNC(=O)[C@H](CCC(=O)O)NC(=O)[C@H](CCC(=O)O)NC(=O)[C@H](CCC(=O)O)NC(=O)CN2CCN(CC(=O)O)CCN(CC(=O)O)CCN(CC(=O)O)CC2)C(N)=O)NC(=O)CNC(=O)[C@H](Cc2ccc3ccccc3c2)NC(=O)[C@@H](CCCNC(=N)N)NC1=O [gallium-68 labelled] — tissue uptake (mouse with PC-3 xenograft, bone; intravenous, 1 h): 0.21 %ID/g
NCCONC(=O)[C@@H]1CC[C@@H]2CN1C(=O)N2OS(=O)(=O)O — number of Severe TRAE events (healthy Chinese male subjects; intravenous, 1 g): 0
O=C(N[C@H](Cc1c[nH]c2ccccc12)C(=O)Nc1ccncc1)c1ccc(-c2ccc(F)c(Cl)c2)cc1F — concentration (Swiss Webster mouse, female, intestine; oral, 50 mg/kg, 8 h, 20% HPβCD vehicle): 11.9 µM
O=C(CCCCCCC(=O)Nc1ccc(CC[18F])cc1)NO — tissue uptake (athymic nu/nu male mice, LNCaP xenograft, blood; intravenous, 0.5 h): 3.3 ± 0.4 %ID/g
CNC(=O)c1cc(Oc2ccc(NC(=O)Nc3cc(C(C)(C)C)nn3-c3ccc4ncccc4c3)c(F)c2)ccn1 — patients with any AE of special interest (human; oral, dose not given, cycles 1 and 2, Medium AUC(0-4 h) subgroup): 86%
COc1ncc(-c2nc3c(n2C(C)C)[C@H](c2ccc(Cl)cc2)N(c2cc(Cl)cn(C)c2=O)C3=O)c(OC)n1 — AUC(0-t) geometric mean (human patients, plasma; oral, 15 mg, 0-24 h, low-dose arm, cycle 1 day 1): 1.55 µg·h/mL
CCCCCCCCCCCCCCCC(=O)N[C@@H](CCC(=O)NCCCC[C@@H]1NC(=O)[C@H]([C@@H](C)CC)NC(=O)[C@@H](NC(=O)[C@@H]2CCCN2C(=O)[C@H](Cc2ccccc2)NC(=O)[C@H](Cc2c[nH]cn2)NC(=O)[C@@H](NC(=O)[C@H](CC(=O)O)NC(=O)CC(C)C)[C@@H](C)O)CSSC[C@@H](C(=O)N[C@@H](CCCCN)C(N)=O)NC(=O)CNC(=O)[C@H](CCCCN)NC(=O)[C@H](CO)NC(=O)[C@H](CCCNC(=N)N)NC(=O)[C@@H]2CCCN2C(=O)[C@H](CCC(=O)O)NC(=O)[C@H](Cc2ccccc2)NC1=O)C(=O)O — Vz/F (healthy volunteers, plasma; subcutaneous, 45 mg single, lyophilised formulation): 54.2 ± 32 L
C[C@@H](c1ncncc1F)[C@](O)(Cn1cncn1)c1ccc(F)cc1F — drug-related TEAE incidence (refers to: Dizziness; human; oral, 200 mg): 0%
CC(C)C[C@H](NC(=O)CNC(=O)c1cc(Cl)ccc1Cl)B(O)O — treatment-emergent adverse events (refers to: Dizziness; human newly diagnosed multiple myeloma; oral, dose not given, maintenance, grade 3, onset cycle 17 or later): 0%
FC(F)(F)c1ccc(CNc2ccc(Cc3c[nH]c4ncc(Cl)cc34)cn2)cn1 — treatment-related adverse events (refers to: maculo-papular rash; human, advanced solid tumours, non-TGCT cohort; oral, 1000 mg/day, any grade): 2%
Cl.[2H]C([2H])([2H])CC(=O)c1cnc(NC(=O)C2CC2)cc1Nc1cccc(-c2ncn(C([2H])([2H])[2H])n2)c1OC — AUC(0-tau) (human, fasted, multiple dose; oral, 10 mg once daily, tablet, day 1, geometric mean): 0.631 µg·h/mL
C=CC(=O)N(C)CCOc1c(N)ncnc1-c1cc(F)cc(NC(=O)c2ccc(C3CC3)cc2F)c1C — Cmax (human, whole blood; oral, 10 mg once daily, day 1): 8.4 ng/mL
CC(C)(C)c1ccc(O)c(CN(Cc2cc(C(C)(C)C)ccc2O)C2CCC(NC(N)=O)CC2)c1 (stereo not drawn) — recovery (human liver microsomes; 2000 ng/mL, 24 h, 25 °C, short-term storage): 98.04 ± 0.16%
N#C[C@@]1(c2ccc3c(N)ncnn23)O[C@H](CO)[C@@H](O)[C@H]1O — bound fraction (plasma protein binding; rat plasma; 10 µM): 0.0819
CN1C(=O)[C@@H](NC(=O)c2nnc(Cc3ccccc3)[nH]2)COc2cccnc21 — terminal half-life (healthy human, fasted, plasma; oral, 10 mg single dose, geometric mean): 5.85 h
CCc1cc(C(=O)NC)c2nccc(N3CCc4c(cc(Cn5ccnc5)cc4-c4cn(C)nc4C(F)(F)F)C3=O)c2c1 — blood DBIL change (Sprague Dawley rats; oral, 100 mg/kg twice daily, 7 days; baseline: vehicle): -6.3%
O=C(NCCCNc1ccnc(Nc2cccc(NC(=O)N3CCCC3)c2)n1)C1CCC1 — effective permeability (PAMPA; PBS; 5 h, pH 7.4): 0.824 nm/s
Cc1ccc(Sc2ccccc2N2CCNCC2)c(C)c1 — participants with TEAE (refers to: blood uric acid increased; healthy adult men; oral, 10 mg daily, 12 days): 0%
Nc1nc2c(nc([N+](=O)[O-])n2[C@@H]2O[C@H](CO)[C@@H](O)[C@H]2O)c(=O)[nH]1 — depurination half-life (citrate phosphate buffer; 0.5 mM, pH 2.15, 37 °C): 5.35 h
NC1(C(=O)N[C@@H](CCO)c2ccc(Cl)cc2)CCN(c2nc[nH]c3nccc2-3)CC1 — incidence of Somnolence (metastatic CRPC patients; dose not given, grade 3 to 4, treatment-related, all doses, with: enzalutamide 160 mg daily): 0%
CC[C@H](C)[C@H](NC(=O)[C@H](CO)NC(=O)[C@H](CCCNC(=N)N)NC(C)=O)C(=O)N[C@H]1CSSC[C@@H](C(=O)N[C@H](C(N)=O)[C@@H](C)O)NC(=O)[C@H](CCCNC(=N)N)NC(=O)[C@H](Cc2c[nH]cn2)NC(=O)[C@H](C)NC(=O)CNC(=O)[C@H](Cc2c[nH]c3ccccc23)NC(=O)[C@H](CC(=O)O)NC(=O)[C@H](CCC(N)=O)NC(=O)[C@H](Cc2ccc3ccccc3c2)NC(=O)[C@H](C(C)C)NC1=O — retention factor (isocratic RP-HPLC, C18; 32% acetonitrile, phosphate pH 7.4, 1% TFA; 25 °C): 1.234 ± 0.006
CCN1/C(=C/C(C)=O)Sc2ccc(F)cc21 — QTc interval change (cynomolgus monkey; oral, 100 mg/kg, 6 h post-dose; baseline: pre-dose): 100 ± 3.1%
C[C@@H](N)C1CCN(S(=O)(=O)c2cccc3cnccc23)CC1 — Vz/F (healthy volunteers, plasma; oral, 150 mg, fed, single dose): 10800 L
